{"data": "Results from different studies", "note": "Compare with care: the assays were run in different laboratories. ± marks the error that the study gave."}
{"Structure (SMILES)": "CCCCC/C=C/C=C1/C(=O)C=C[C@@H]1C/C=C\\CCCC(=O)O", "assay": "cell viability, MTT", "system": "mouse lung slices", "setting": "48 h", "quantity": "CC50", "value": "21.7 µM"}
{"Structure (SMILES)": "CC[C@H](C)[C@H](NC(=O)[C@@H](N)CCCNC(=N)N)C(=O)N[C@H](C(=O)N1CCC[C@H]1C(=O)N[C@@H](C)C(N)=O)C(C)C", "system": "healthy volunteers, both sexes, plasma", "setting": "intravenous infusion, 0.15 mg/kg, single ascending dose", "quantity": "Tmax", "value": "4 min"}
{"Structure (SMILES)": "CCCCCOc1ccc(-c2cc(-c3ccc(C(=O)N[C@H]4C[C@@H](O)[C@@H](O)NC(=O)[C@@H]5[C@@H](O)[C@@H](C)CN5C(=O)[C@H]([C@H](O)CC(N)=O)NC(=O)[C@H]([C@H](O)[C@@H](O)c5ccc(O)c(OS(=O)(=O)O)c5)NC(=O)[C@@H]5C[C@@H](O)CN5C(=O)[C@H]([C@@H](C)O)NC4=O)cc3)no2)cc1", "system": "preterm neonates ≥1000 g, plasma", "setting": "intravenous, 15 mg/kg/day, repeated dosing, mean", "quantity": "AUC(0-24)", "value": "472000 ng·h/mL"}
{"Structure (SMILES)": "COc1cc2c(cc1OC)C(=O)C(CC1CCN(Cc3ccccc3)CC1)C2 (stereo not drawn)", "system": "human", "setting": "oral, 5 mg daily, 3 days", "quantity": "systolic blood pressure", "value": "116 mmHg"}
{"Structure (SMILES)": "O=C(O)C(F)(F)C(F)(F)C(F)(F)C(F)(F)C(F)(F)C(F)(F)C(F)(F)F", "assay": "LC-MS", "system": "C57BL/6J mouse female, plasma", "setting": "drinking water, 2 mg/L each PFAS, 12 weeks", "quantity": "plasma concentration", "value": "23400 ng/mL"}
{"Structure (SMILES)": "CC(C)c1nc(N(C)S(C)(=O)=O)nc(-c2ccc(F)cc2)c1/C=C/[C@@H](O)C[C@@H](O)CC(=O)O", "system": "human, plasma", "setting": "oral, dose not given, 14 day washout, carryover, one subject", "how to read": "relative to: Cmax", "quantity": "pre-dose concentration", "value": "< 5%"}
{"Structure (SMILES)": "CNC(=O)c1ccc(-c2cnn3ccc(C(=O)N(C)c4ccc(Cl)c(C(=O)OC)c4)cc23)cc1", "system": "Wistar rats, both sexes, plasma", "setting": "oral, 250 mg/kg/day, day 1, 2-week toxicology study", "quantity": "AUC(0-8 h)", "value": "5.24 ng·h/mL"}
{"Structure (SMILES)": "CCCCCCCC[N+](C)(C)CCCCCCCC", "assay": "in vitro-in vivo extrapolation", "system": "human", "quantity": "hepatic clearance", "value": "3.23 mL/h/g liver"}
{"Structure (SMILES)": "CC1N=C(c2ccccc2F)c2cc(Nc3ccc(Cl)cc3)ccc2NC1=O (stereo not drawn)", "assay": "shake flask", "system": "PBS", "setting": "24 h, pH 7.4", "quantity": "solubility", "value": "6.83 µM"}
{"Structure (SMILES)": "O=C(O)CC[C@H](NC(=O)CNC(=O)[C@@H]1C[C@@H](O)CN1)C(=O)N[C@@H](Cc1ccccc1)C(=O)NCC(=O)O", "system": "ICR mouse, tail bleeding", "setting": "oral, 450 µmol/kg", "how to read": "relative to: vehicle", "quantity": "spleen index", "value": "no effect"}
{"Structure (SMILES)": "CC(=O)N[C@H](CCCCNC(=O)C(C)F)C(=O)N[C@@H](CS)C(=O)N[C@@H](CS)C(=O)N[C@@H](CCC(=O)O)C(=O)N[C@@H](Cc1c[nH]cn1)C(=O)N[C@H](Cc1ccccc1)C(=O)N[C@@H](CCCNC(=N)N)C(=O)N[C@@H](Cc1c[nH]c2ccccc12)C(=O)N[C@@H](CS)C(=O)N[C@@H](CCCNC(=N)N)C(=O)N1CCC[C@H]1C(=O)N[C@H](C(N)=O)C(C)C (stereo partly drawn) [fluorine-18 labelled]", "system": "male C57BL/6 mice, B16-F10 tumour", "setting": "intravenous, 4 h", "how to read": "relative to: tumour over muscle", "quantity": "tumour to tissue uptake ratio", "value": "17 ± 1.73"}
{"Structure (SMILES)": "CC[C@@]1(O)C(=O)OCc2c1cc1n(c2=O)Cc2cc3c(CN(C)C)c(O)ccc3nc2-1", "system": "human patients, plasma", "setting": "oral, 2.5 mg daily for 5 days, geometric mean, alone", "quantity": "AUC(0-inf)", "value": "45 ng·h/mL"}
{"note": "Excerpt of the above:"}
{"Structure (SMILES)": "CC(=O)N[C@H](CCCCNC(=O)C(C)F)C(=O)N[C@@H](CS)C(=O)N[C@@H](CS)C(=O)N[C@@H](CCC(=O)O)C(=O)N[C@@H](Cc1c[nH]cn1)C(=O)N[C@H](Cc1ccccc1)C(=O)N[C@@H](CCCNC(=N)N)C(=O)N[C@@H](Cc1c[nH]c2ccccc12)C(=O)N[C@@H](CS)C(=O)N[C@@H](CCCNC(=N)N)C(=O)N1CCC[C@H]1C(=O)N[C@H](C(N)=O)C(C)C (stereo partly drawn) [fluorine-18 labelled]", "system": "male C57BL/6 mice, B16-F10 tumour", "setting": "intravenous, 4 h", "how to read": "relative to: tumour over muscle", "quantity": "tumour to tissue uptake ratio", "value": "17 ± 1.73"}
